Measurements from different studies.
Protocols differ between the studies behind these lines. “And” joins repeats or separate records; there may be more than shown.

With `CC1CCC2C(C)C(OC(=O)CCC(=O)N(CCCc3cn(-c4ccc(C#N)cc4)nn3)CCNc3ccnc4cc(Cl)ccc34)OC3OC4(C)CCC1C32OO4` (stereo not shown) the inhibition was 65.4% (HL-60; cell growth or viability, resazurin; 10 µM, 48 h).
With `Cc1cc(N)c2ccccc2[n+]1CCCCCCCCCCCCCC[n+]1c(C)cc(N)c2ccccc21` the selectivity ratio was > 50 fold and 59 fold (neuroblastoma TICs and skin-derived precursors; sphere formation; reference: EC50 SKPs over EC50 NB TICs).
The apoptotic cells of `CCc1ccc(C(=O)N[C@@H](CO)C(=O)N[C@H](C(=O)N2CCC[C@H]2C(=O)N[C@@H](CC(N)=O)C(=O)NCC(=O)N[C@@H](CC(C)C)C(=O)O)[C@@H](C)OP(=O)(O)O)cc1` is reported as 36.2% (HeLa, QQ transfected; 30 µM, 24 h).
`C[C@H]1C(OCCCC[P+](c2ccccc2)(c2ccccc2)c2ccccc2)O[C@@H]2O[C@@]3(C)CCC4[C@H](C)CCC1[C@]42OO3` (stereo partly shown) gave a selectivity index of 1.39 (T24; MTT; 72 h; reference: HUVEC IC50 over T24 IC50).
With `CC[C@@]1(OC(=O)CCC(=O)NCCCC[C@H](NC(=O)[C@H](Cc2ccccc2)NC(=O)[C@H](Cc2ccccc2)NC(=O)CCSC2=C(/C=C/C3=[N+](C)c4ccccc4C3(C)C)CCC/C2=C\C=C2\N(C)c3ccccc3C2(C)C)C(=O)N[C@@H](CCCCNC(=O)CCCC[C@@H]2SC[C@@H]3NC(=O)N[C@@H]32)C(=O)O)C(=O)OCc2c1cc1n(c2=O)Cc2cc3ccccc3nc2-1` the viability was 45.3% (4T1; CCK-8; 5 µM, 6 h then 24 h, with: 808 nm laser 1 W/cm2 5 min; reference: untreated).
With `C[C@H]1C(OCCCCCCCCC[P+](c2ccccc2)(c2ccccc2)c2ccccc2)O[C@@H]2O[C@@]3(C)CCC4[C@H](C)CCC1[C@]42OO3` (stereo partly shown) the selectivity index was 2.23 (T24; MTT; 72 h; reference: HUVEC IC50 over T24 IC50).
Under “time to maximal cAMP”, `CC[C@H](C)[C@H](NC(=O)[C@@H](NC(=O)[C@H](CCC(=O)O)NC(=O)[C@H](CCSC)NC(=O)[C@H](CC(C)C)NC(=O)[C@H](CCCCN)NC(=O)[C@H](CCCNC(=N)N)NC(=O)[C@H](CC(N)=O)NC(=O)[C@H](CO)NC(=O)[C@H](Cc1c[nH]cn1)NC(=O)[C@H](C)NC(=O)[C@H](CCC(N)=O)NC(=O)[C@H](CCC(N)=O)NC(=O)[C@H](C)NC(=O)[C@H](CC(C)C)NC(=O)[C@H](CCC(N)=O)NC(=O)[C@H](CCC(=O)O)NC(=O)[C@H](C)NC(=O)[C@H](CCCNC(=N)N)NC(=O)[C@H](C)NC(=O)[C@H](CCSC)NC(=O)[C@H](CCC(=O)O)NC(=O)[C@H](CC(C)C)NC(=O)[C@@H](NC(=O)[C@H](CCC(=O)O)NC(=O)[C@H](CCCNC(=N)N)NC(=O)[C@H](CC(C)C)NC(=O)[C@H](CC(C)C)NC(=O)[C@H](Cc1c[nH]cn1)NC(=O)[C@H](Cc1ccccc1)NC(=O)[C@@H](NC(=O)[C@H](CC(C)C)NC(=O)[C@H](CC(=O)O)NC(=O)[C@H](CC(C)C)NC(=O)[C@H](CO)NC(=O)[C@@H](NC(=O)[C@@H]1CCCN1C(=O)[C@@H]1CCCN1C(=O)[C@H](CCC(=O)O)NC(=O)[C@H](CCC(=O)O)NC(=O)[C@@H](N)CO)[C@@H](C)CC)[C@@H](C)O)C(C)C)[C@@H](C)CC)C(N)=O` is recorded as 2 to 5 min (αT3-1; agonist; 200 nM).
With `CC[C@H](C)[C@H](NC(=O)[C@@H](NC(=O)[C@H](CC(N)=O)NC(=O)[C@H](CCC(N)=O)NC(=O)[C@@H]1CCCN1C(=O)[C@@H](NC(=O)[C@H](Cc1ccc(O)cc1)NC(=O)CNC(=O)[C@H](Cc1ccc(O)cc1)NC(=O)[C@H](Cc1c[nH]c2ccccc12)NC(=O)[C@H](Cc1c[nH]cn1)NC(=O)[C@H](Cc1ccc(O)cc1)NC(=O)CNC(=O)CCCC1=C2C(C)=CC(C)=[N+]2[B-](F)(F)n2c(C)cc(C)c21)[C@@H](C)O)C(C)C)C(N)=O` the cellular uptake was ~5 fold (HEp-2; 10 µM, 24 h; reference: BODIPY 1).
For `O=[N+]([O-])c1ccc(Sc2nnc[nH]2)c2nonc12`, “overlap with Myc targets” read 15.3% (Ramos; LFQ mass spectrometry; 10 µM, 8 h).
For `CC[C@@]1(O)C(=O)OCc2c1cc1n(c2=O)Cc2cc3cc(OC(=O)CCCC(=O)NCC(=O)N[C@@H](Cc4ccccc4)C(=O)N[C@@H](Cc4ccccc4)C(=O)N[C@@H](Cc4ccc(OP(=O)(O)O)cc4)C(=O)NCCSSCCNC(=O)CCC(=O)N[C@@H](CCC(=O)O)C(=O)N[C@@H](CCCNC(=N)N)C(=O)NCC(=O)N[C@@H](CC(=O)O)C(=O)O)ccc3nc2-1`, the IC50 ratio was 10 fold and > 10 fold (HepG2; cell growth, MTT; 48 h; reference: free hydroxycamptothecin over compound).
`CCOP(=O)(OCC)OCCCCOC(=O)CC1=C(C)C(=Cc2ccc([S+](C)[O-])cc2)c2ccc(F)cc21` (stereo not shown) gave an apoptosis increase of 3.6 fold (A549 parental; Annexin V/PI staining; concentration not given; reference: ρ0 A549 cells).
With `COc1cc(C)c(OC)c2c1OCO2` the GI50 was > 250 µM (HCT-116; cell growth or viability; 72 h).
Under “pathway activation z-score”, `COC1CC(=O)N(C)C=CCCCC(=O)N(C)C(C(C)C)C(=O)N(C)C(CC(C)C)C(=O)OC(C(C)C)CC(C)C1` (stereo not shown) is recorded as 2.12 (HCT-116; RNA sequencing, item: hepatic fibrosis signalling pathway; 20 µM, 12 h; direction not given).
With `F[P-](F)(F)(F)(F)F.F[P-](F)(F)(F)(F)F.[Ru+2].c1ccc(-c2ccccn2)nc1.c1ccc(-c2ccccn2)nc1.c1csc(-c2cc3cccnc3c3ncccc23)c1` the phototherapeutic index was 1 (HL-60; cell viability; red light 625 nm; reference: dark EC50 over light EC50).
`CC1(C(=O)O)CCCC2(C)C1CCC1(C)c3cocc3CCC12` (stereo not shown): mRNA level “no effect” (VCaP; inhibitor, qRT-PCR, item: PSA, FKBP5, TMPRSS2; 10 µM, 16 h, androgen-induced transcripts, with: R1881 1 nM).
`CC(=O)N[C@H](C(=O)N[C@@H](C)C(=O)N[C@@H](CCC(N)=O)C(=O)N[C@@H](CCC(N)=O)C(=O)N[C@@H](C)C(=O)N[C@@H](C)C(=O)N[C@@H](CC(N)=O)C(=O)N[C@H](C(=O)N[C@@H](C)C(=O)N[C@@H](C)C(=O)N[C@H](C(=O)N[C@@H](CC(C)C)C(=O)N[C@@H](CCCCN)C(=O)N[C@@H](CC(N)=O)C(=O)N[C@@H](CO)C(=O)N[C@@H](CCCNC(=N)N)C(=O)N[C@@H](CO)C(=O)N[C@@H](CC(C)C)C(=O)NCC(=O)N[C@@H](CCC(=O)O)C(=O)N[C@@H](CC(N)=O)C(=O)N[C@@H](CC(=O)O)C(=O)N[C@@H](CC(=O)O)C(=O)NCC(=O)N[C@@H](CC(N)=O)C(=O)N[C@@H](CC(N)=O)C(=O)N[C@@H](CCC(=O)O)C(=O)N[C@@H](CC(=O)O)C(=O)N[C@@H](CC(N)=O)C(=O)N[C@@H](CCC(=O)O)C(=O)N[C@@H](CCCCN)C(=O)N[C@@H](CC(C)C)C(=O)N[C@@H](CCCNC(=N)N)C(N)=O)[C@@H](C)O)C(C)C)C(C)C`: colony formation “decreased” (HepG2; 320 µg/mL, 15 days; reference: control).
For `CC[C@H](C)[C@H](NC(=O)[C@@H](Cc1ccccc1)NC(=O)[C@@H](N)C(C)C)C(=O)N[C@@H](C)C(N)=O`, the viability was 92.9% (PC-12; Aβ42-induced neurotoxicity, inhibitor, MTT; concentration not given, 6 h, 37 °C, peptide to Aβ42 1:2, with: Aβ42 2 µM; reference: untreated cells).
`C[C@H]1C(OCCCCCCCC[P+](c2ccccc2)(c2ccccc2)c2ccccc2)O[C@@H]2O[C@@]3(C)CCC4[C@H](C)CCC1[C@]42OO3` (stereo partly shown) — result for “G0/G1 phase cells”: 79.9% (T24; PI flow cytometry; 100 nM, 48 h).
The CC50 of `CC/C=C\C/C=C\C/C=C\C/C=C\C/C=C\C/C=C\CCC(=O)Nc1ccn(C2OC(CO)C(O)C2(F)F)c(=O)n1` (stereo not shown) is reported as 54.1 µM (NCI-H522; NCI60 screen).
For `CC(=O)Oc1cccc(/C=C/C(=O)Nc2nc(=O)n([C@@H]3O[C@H](C)[C@@H](OC(C)=O)[C@H]3OC(C)=O)cc2F)c1`, the selectivity index was 1.62 (ASPC1; cell viability, MTT; reference: NHDF fibroblasts over ASPC1).
For `CC[C@H]1OC(=O)[C@H](C(C)C)NC(=O)[C@H](C)OC(=O)[C@@H](C(C)C)NC(=O)[C@@H](C(C)C)OC(=O)[C@H](C(C)C)NC(=O)[C@H](C)OC(=O)[C@@H](C(C)C)NC(=O)[C@@H](C(C)C)OC(=O)[C@H](C(C)C)NC(=O)[C@H](C)OC(=O)[C@@H](C(C)C)NC1=O`, “S phase cells” read 9.12% (U-87 MG; PI staining flow cytometry; 0.8 µM, 12 h).
For `N[C@@H](CCC(=O)N[C@@H](CS[Se]Cc1ccc(-c2cc(C(F)(F)F)nn2-c2ccc(S(N)(=O)=O)cc2)cc1)C(=O)NCC(=O)O)C(=O)O`, caspase-3/7 activity read “decreased” (UACC-903; 50 µM).

Repeated from above:
`C[C@H]1C(OCCCC[P+](c2ccccc2)(c2ccccc2)c2ccccc2)O[C@@H]2O[C@@]3(C)CCC4[C@H](C)CCC1[C@]42OO3` (stereo partly shown) gave a selectivity index of 1.39 (T24; MTT; 72 h; reference: HUVEC IC50 over T24 IC50).
With `CC[C@@]1(OC(=O)CCC(=O)NCCCC[C@H](NC(=O)[C@H](Cc2ccccc2)NC(=O)[C@H](Cc2ccccc2)NC(=O)CCSC2=C(/C=C/C3=[N+](C)c4ccccc4C3(C)C)CCC/C2=C\C=C2\N(C)c3ccccc3C2(C)C)C(=O)N[C@@H](CCCCNC(=O)CCCC[C@@H]2SC[C@@H]3NC(=O)N[C@@H]32)C(=O)O)C(=O)OCc2c1cc1n(c2=O)Cc2cc3ccccc3nc2-1` the viability was 45.3% (4T1; CCK-8; 5 µM, 6 h then 24 h, with: 808 nm laser 1 W/cm2 5 min; reference: untreated).
